Measured values from different studies.
Each numbered part is a random draw from the data of one study; scales do not carry over between parts.

Block 1
Target: RING finger protein unkempt homolog, zinc fingers 1-6, GST-SBP tag (UNK, Homo sapiens, UniProt Q9C0B0, residues 30-357)
UniProt Q9C0B0, sequence (30-357, looked up): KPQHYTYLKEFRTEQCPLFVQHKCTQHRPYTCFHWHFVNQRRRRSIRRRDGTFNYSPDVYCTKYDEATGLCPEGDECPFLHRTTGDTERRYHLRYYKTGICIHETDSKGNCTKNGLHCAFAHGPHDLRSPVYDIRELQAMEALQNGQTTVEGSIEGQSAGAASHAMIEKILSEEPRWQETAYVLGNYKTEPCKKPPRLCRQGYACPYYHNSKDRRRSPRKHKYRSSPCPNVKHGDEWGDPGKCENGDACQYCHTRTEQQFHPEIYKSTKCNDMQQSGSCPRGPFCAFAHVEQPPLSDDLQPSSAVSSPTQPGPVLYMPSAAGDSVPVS
Technique: RNA Bind-n-Seq
Form: RNA
Matrix: in vitro
Tested at: not given
Notes: RNA with constant flanks, human and mouse sites, ends assumed
Baseline: input RNA pool
Reading: higher = stronger binding
Shared flanks, not repeated: GGGAGUUCUACAGUCCGACGAUC … CAACAGAGGAUUGAGCAUCA
Oligonucleotide	bound/input enrichment [ratio]
AAACACGAGCGGAUUGAAAACGACGUGGCCACCAUCCUGUCUCGCCGCAUUGCUGUGGAGUAUAGCGACUCGGAAGAUGACUCGGAGUUCGAUGAAGUAGACUGGCUGGAGUAAGAAAGC	0.159
UUUUUAUUGUACAUUUAUUUUUUGUCCUUAUAUACUGGAGUGUGAUCCAAGUUGUACAUGAAUCAAAAAGAUGGUGUUACAUUUGUAUUACGCUGGGAAUUCUUGCUGGAGGGAUUGGAG	1.13
UUAAAAAAAUCACUAAAUUGUGCCUAAAGAACAUAACUGCCAUAUUAAUGUUUUUAUUUCUAUAGUAUUAGAAAAACAUUUAAUACUUGUAGCAUUGAUGUGUUGAUUUGAUACCAGUUG	0.275
AUACAGUGCCAGAACAAAGGCUGGGAUGGCUACGAUGUACAGUGGGAAUGUAAGACCGACUUGGAUAUUGCAUACAAAUUUGGCAAAACUGUGGUGAGCUGUGAAGGCUACGAGUCCUCU	0.169
CCGCGGCAAUUUGGUUCCGCCCUUCCCCAGCUCAAAUCGCGAGCCCCGCCCCAUUCCGCCCCGCCCCGCGCCGGGACCGGAGCCGCAGCCCGAGCGGCGGGGUGACCAUGGAGGAGGAAG	0.202
GAGAAGAUUAUCUGUAACUUAAAACCAGCUUUAAAACUUCGUCUUCGAUUCAUCACACACAUUAGCAAGAUGGAGCCAGCUGCAGUGCCUCCACAAGCCAUGAACAGUGGGUCUCCAGCA	0.414
UCCAGCCAGCACAUCUCCAUUGAGGGCCAGAAGGAAGAGGAAAGGUAUGAGAGAAUCGAAAUCCCAAUCCAUAUUGUACCUCAUGUCACUAUCGGGAAAGUGUGCCUUGAAUCAGCAGUA	0.217
AUCAUUGGUUAUGCCAGAAACCCUUCGCUGAAGCAGCAGCUGUUCUCAUAUGCUAUCCUGGGAUUUGCCUUGUCUGAAGCUAUGGGUCUCUUUUGUUUGAUGGUUGCUUUCUUGAUUUUG	0.196

Block 2
Target: Ras GTPase-activating protein-binding protein 1, RRM domain (G3BP1, Homo sapiens, UniProt Q13283)
UniProt Q13283, sequence (whole entry, looked up): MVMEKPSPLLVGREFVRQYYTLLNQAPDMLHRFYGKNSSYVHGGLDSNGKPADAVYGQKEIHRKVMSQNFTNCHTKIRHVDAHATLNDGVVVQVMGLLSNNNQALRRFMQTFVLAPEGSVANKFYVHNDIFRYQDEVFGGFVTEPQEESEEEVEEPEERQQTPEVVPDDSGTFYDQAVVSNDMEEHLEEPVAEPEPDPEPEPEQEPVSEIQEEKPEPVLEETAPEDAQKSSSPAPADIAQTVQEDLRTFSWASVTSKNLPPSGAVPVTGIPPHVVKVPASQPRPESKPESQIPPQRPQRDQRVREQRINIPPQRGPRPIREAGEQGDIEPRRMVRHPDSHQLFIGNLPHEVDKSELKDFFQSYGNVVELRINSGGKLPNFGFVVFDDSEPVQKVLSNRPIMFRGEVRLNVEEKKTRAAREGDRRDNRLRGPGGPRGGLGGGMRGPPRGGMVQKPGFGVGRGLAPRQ
Technique: RNA Bind-n-Seq
Form: RNA
Matrix: in vitro
Tested at: 1 µM
Notes: whole 134-nt RNA, ends assumed
With: 150 mM KCl
Baseline: input library
Reading: higher = stronger binding
Shared flanks, not repeated: GGGAGUUCUACAGUCCGACGAUC … UGGAAUUCUCGGGUGUCAAGG
Oligonucleotide	log2 enrichment
ACCAUGCAGGUGGGCAUCUUUGGGAAGUGGGGCAAGGGGGGGAUAGGGUGGGGGGUAACACUUUGGGAACAGGUGGUCCCAGGUCGUUUC	0.936
UGUGCUACACAUCGUAUGUACCGAAUCGGGGAAAAAAAGGGGAAAAAGGGGAAAAAAAGGGGAAAGUAUUAUGUUACGCCGUUCGGAUCU	1.08
ACCAUGCAGGUGGGCAUCUUUGGGAAGUGGGUCAAGGGGGGGAUAGGGAGGGGGGUAACACUUUGGGAACAGGUGGUCCCAGGUCGUUUC	-0.258
CUCCAGAAAGCAGUGGGGCCUGAGAUCACCAAGACAGACCUGGUCCCUGCCUUCCAGAACCUGAUGAAAGACUGUGAGGCCGAGGUGAGG	-0.386
UAACUUUAGAGGAGGAUCUGAUGGAUAUGGCAGUGGACAUGGAUUUGGGGAUGGCUAUAAUGGGUAUGGAGGAGGACCUGGAGGUGGCAA	-0.811
AGUCCUGUGCUACACAUCGUAUGUACCGAAUCGGGGAAAAAGGAAAAAGGGAAAAAGGAAAGUAUUAUGUUACGCCGUUCGGAUCUGCAC	-0.123
UAACUUUAGAGGAGGAUCUGAUGGAUAUGGCAGUGGACGUGGAUUUGGGGAUGGCUAUAAUGGGUAUGGAGGAGGACCUUGAGGUGGCAA	-0.419
UCCUGUGCUACACAUCGUAUGUACCGAAUCGGGGAAAAAAGGGGAAAAAAGGAAAAAAGGAAAGUAUUAUGUUACGCCGUUCGGAUCUGC	0.0448
UCCCUGAGACGGCGGGCAACAGCAUCGGCAGGAACGCCAUGGCCGUCCCCUCCCAGCUCUUACCUUACCAUCGACCUCACAGACGACACA	-0.329

Block 3
Target: RNA binding protein fox-1 homolog 2, RRM domain, GST-SBP tag (RBFOX2, Homo sapiens, UniProt O43251-10, residues 100-194)
Technique: RNA Bind-n-Seq
Form: RNA
Matrix: in vitro
Tested at: 365 nM
Notes: natural RNA segment, single round, ends assumed
Baseline: no-protein control
Reading: higher = stronger binding
Shared flanks, not repeated: GGGAGUUCUACAGUCCGACGAUC … UGGAAUUCUCGGGUGCCAA
Residues (chain): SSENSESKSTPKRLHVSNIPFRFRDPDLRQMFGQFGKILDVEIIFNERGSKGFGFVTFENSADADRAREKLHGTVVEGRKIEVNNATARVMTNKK
Oligonucleotide	RBNS enrichment (R)
CCUCCUACAGCUGGCCUAACCACUCUUGAGUCGGGGUGGGGGUAACCCUCAAGGAGGAGGUAACUAAGAGGCUCUUCCAGGGGUAGCUGGUGGGUGUGCUUUUCAUAGGC	0.437
ACUGUAUACAUCUGUUUAAUUUGAACACACUACAUCGUAGGGUGACUGAUUUUUGAAGUAUACCACAGACAAAAAGUUGUUACUAUGGUAAACUAAGCUAGUUUAACACU	0.274
AAACAGUUAAAAUGAAUUUAAGAAUAAACAUAAGGCAUCGUUUUCAAUGAACAGUAAUAAUUUCCCAAUUUACAGAUUAGUGUCUACAAAGGUUUUCUUACAUCUUCUUC	0.683
GACUGUUUUAUAAAGAAAUGGAAAAAAGUGAAAUAAAAAAUAUGUUGAAUCAGAUUUUUUAAAAGGGGUAUUUGUUUUUUUAUAACAGGUAUUGAAACAAGUUAACUUGC	0.67
UCCAGAGUAGCUGGGACUACAAACGUGUGUCACCAGGCCCAGCUAAUUUUUGUAUUUUUAAUAAAGACGGGGUUUCAUCAUGUUGGCCAGGGUGGUCUCGAUCUCUUGAC	0.919
UGCCUAGUAUAGUGCUGAGCACAUAGUAGGCGUUUAAUAAAUGCUUGUUGAAGUAUUGUGUGGAUUAUUUGUGGUGGUAUCUACAGAAAUUUUUAAGCUGUUUUCAAGAA	0.559
GUCGCAAAUGAAGCUGCCCCACUCCCCCGGCACCCUGCAGCUUUAGUUUACUAAACUAGAAGUCCUCAUAGUUUAAAAUGGCCUCAGCAGGCCUAGUGUAUACAAACUGG	0.192
UAAGAAAUAGUUUAACAGGAAAAAACGUUUAAGCACAAACAUUUUUAAGAUCUUAUGUUUUAAGUGGCAUUUUAGCACAGUAUUUAACAUUGUUGGUCACCGAGCUAUUU	0.868

Block 4
Target: Histone acetyltransferase KAT6A, both winged helices, GST fusion (KAT6A, Homo sapiens, UniProt Q92794, residues 1-181)
Technique: protein binding microarray
Form: double-stranded DNA, one strand shown
Matrix: in vitro
Tested at: not given
Notes: 8-mer, flanks averaged, mean of 2 arrays, mostly near background
Baseline: not given
Reading: higher = stronger binding
Target sequence (chain): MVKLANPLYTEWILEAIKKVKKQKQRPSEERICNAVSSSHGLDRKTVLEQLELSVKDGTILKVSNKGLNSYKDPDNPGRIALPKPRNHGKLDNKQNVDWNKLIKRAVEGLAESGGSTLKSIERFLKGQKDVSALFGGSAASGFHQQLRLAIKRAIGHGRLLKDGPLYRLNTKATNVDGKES
Oligonucleotide	E-score
TCCGTCAA	0.238
CCTCAGCA	-0.00488
ATTACTGG	-0.277
CCGTCCTA	0.13
AGGTATAA	-0.0628
ATCAGGTG	-0.181
ACCTCATA	-0.162
ACTATAAG	-0.0864
CGGTGCGA	0.212
ATCGCCGC	0.361
CCGAGGTA	-0.0756
ACGGCTAC	0.276
CTGATGGC	-0.0466
CCTATGTC	-0.242
CTAAAGGC	-0.0791
CGACCCCG	0.277
AACAAGCT	-0.157
GTCGTAGA	-0.0709
CATTGGAG	0.0195
AGTTAGAT	-0.106
AGATTGGG	-0.258
CCCGTGAC	0.236
CACCTTCG	-0.00966
CCGCACTC	0.194
ACGTGGGG	-0.284

Repeated from above (block 3):
Oligonucleotide	RBNS enrichment (R)
AAACAGUUAAAAUGAAUUUAAGAAUAAACAUAAGGCAUCGUUUUCAAUGAACAGUAAUAAUUUCCCAAUUUACAGAUUAGUGUCUACAAAGGUUUUCUUACAUCUUCUUC	0.683
GACUGUUUUAUAAAGAAAUGGAAAAAAGUGAAAUAAAAAAUAUGUUGAAUCAGAUUUUUUAAAAGGGGUAUUUGUUUUUUUAUAACAGGUAUUGAAACAAGUUAACUUGC	0.67
UCCAGAGUAGCUGGGACUACAAACGUGUGUCACCAGGCCCAGCUAAUUUUUGUAUUUUUAAUAAAGACGGGGUUUCAUCAUGUUGGCCAGGGUGGUCUCGAUCUCUUGAC	0.919
